Results from different studies.
Numbered parts are unrelated; each lists some results of a single study.

Set 1
Target: RING finger protein unkempt homolog, zinc fingers 1-6, GST-SBP tag (UNK, Homo sapiens, UniProt Q9C0B0, residues 30-357)
Technique: RNA Bind-n-Seq
Molecule type: RNA
Medium: in vitro
Concentration: not given
Notes: RNA with constant flanks, human and mouse sites, ends assumed
Baseline: input RNA pool
Reading: higher = stronger binding
All sequences stand within: GGGAGUUCUACAGUCCGACGAUC … CAACAGAGGAUUGAGCAUCA
Target sequence (chain): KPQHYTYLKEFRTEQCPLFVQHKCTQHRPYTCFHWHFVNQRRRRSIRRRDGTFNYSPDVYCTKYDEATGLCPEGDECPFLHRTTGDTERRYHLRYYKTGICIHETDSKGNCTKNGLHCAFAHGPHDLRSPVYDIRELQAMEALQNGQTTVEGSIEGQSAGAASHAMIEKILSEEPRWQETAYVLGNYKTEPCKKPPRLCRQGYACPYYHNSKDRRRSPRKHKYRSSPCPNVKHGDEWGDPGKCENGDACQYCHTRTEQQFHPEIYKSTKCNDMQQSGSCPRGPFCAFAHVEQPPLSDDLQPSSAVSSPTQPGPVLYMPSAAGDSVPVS
| Oligonucleotide | bound/input enrichment [ratio] |
| --- | --- |
| UCCUGGAGUCAGGAAAGACAAACCUUCGCCGAUGUACUUACCUUGUGUUGGAUGAGGCUGACCGGAUGCUUGAUAUGGGCUUUGAGCCCCAGAUCCGUAAAAUUGUUGAUCAAAUCAGGC | 0.157 |
| GUGUCCUGCUUUCAACUUAAAUCACUGAGGCAUCUCUACUGUUCUGUGAGCAUCAGGACUGUAGCGCUGUGUCACCACAUGAGAGUUCAGAAGCAGCCUUUCUGUGGAGGGUGGGAAUGA | 0.113 |
| AAUCUCUGCAAGCUCAUGAAGGAGAUCUUGGACAAGAAGGUUGAAAAGGUGACAAUCUCCAAUAGGCUUGUGUCUUCACCCUGCUGCAUUGUGACAAGCACCUAUGGCUGGACAGCCAAC | 0.156 |
| CUGAGCCUGGUGGCUAAGGGUGGGCUCGGCCUCCUCUUCCCCUGUCCGAUGGAGGACAGUCGGAGGCUCUUUUCAAGUUGGUCAGCCCUGACUGAAGUGCUGAAACUGGGAAGGAGAUCC | 0.04 |
| AGCCUGUGGUGGGCGCUGCGGGUGUUUGCAGGAGGUUGCAGUACUCGCUGGGCUGAGGUCGUCUCGGGUGAGGAGGUCGCGCCGGAAGUGGCUCUAGCCGUGGCGCUUCGGCGUAGUAAG | 0.444 |
| CUUUUAAAACAAGUGCUUCAGAUCCAGAAAUUUGUUAACAUGAAAACUCAAGGAUGUUUUCCUCAGUUGUUUCCUGUAAGUGCUGUGACCUUUUCUGGAAUCCACCUGUUGAGAUGCUUU | 0.287 |
| CACUCCCAAGGCGUCUCCUUUAGUUAAAUGGUUUCCCCAAGGUCACCUUUUUGUAAUCGCCAUAGUUUGGGCUACAGGAUGAGACACUAUCUCCACAAACAAGGAAGCCAAUACUCUUAA | 0.538 |
| UUUCUAAAAUACUGGCAUGCUGACCAACUCAAUGAUUUGUGCCUACAGUUGCAGAGAAAAAUUAUAACCUGCCAAAAAGUUAUCAGAGGAUUUUUAGCACGCCAGCACCUGCUUCAGAGA | 0.293 |
| CAGGCAGCUUUGGAAUUUCAUGGUGUGGCCCAAGAUUUGUCUCAGCAGUUGGACGGCUUAUUAGGGAUGUUGUGCGUAGAUGUAGCACCAGCUGAUGGAGCAUCGAUUCAGCAAACUUUA | 0.497 |
| GAUAAAAUGAUUGAUGUAGCUCUUUACAUUGGGAAAGGAGCUUGACAUGCUUAGCUUCCUAUAGAAGUCAGGACCGGCUGGUGUGCGGAGUGUUUCAGUUCAGAGCCUAAACUGAAAGGG | 0.53 |
| AGCAAGUUUUAAAAUUUUAAUGUUUUGGCUUUCAUUACUUCAUCUUAAUUAUAGCUUUGUAUGUUACUCUUAUUUAAUAUAAUCUCUAUUGUAUUGAUUUCUUCUGUAUUUACCUUUUGG | 3.69 |

Set 2
Target: Prothrombin, mature alpha-thrombin (F2, Homo sapiens, UniProt P00734)
Technique: aptamer microarray, sandwich
Molecule type: DNA with 2'F-ANA
Medium: in vitro
Concentration: 200 nM
Notes: whole 15-mer aptamer, many near background
Together with: Cy3 exosite-II aptamer, 400 nM
Reading: higher = stronger binding
Oligonucleotide: GGTTGGTGTGGTTGG
| Modification | mean fluorescence intensity |
| --- | --- |
| 2'F-ANA at 1 3 6 8 9 10 11 13 14 | 61.8 a.u. |
| 2'F-ANA at 2 4 5 6 7 9 10 11 | 48.7 a.u. |
| 2'F-ANA at 1 3 5 7 9 12 13 14 15 | 104 a.u. |
| 2'F-ANA at 1 3 4 6 7 8 9 11 13 15 | 141 a.u. |
| 2'F-ANA at 3 4 6 9 11 14 | 241 a.u. |
| 2'F-ANA at 2 7 8 10 13 | 141 a.u. |
| 2'F-ANA at 3 4 8 10 11 12 13 14 | 175 a.u. |
| 2'F-ANA at 7 12 13 14 15 | 239 a.u. |
| 2'F-ANA at 1 8 9 12 13 15 | 358 a.u. |
| 2'F-ANA at 8 11 13 14 | 209 a.u. |
| 2'F-ANA at 1 2 3 4 7 9 13 15 | 104 a.u. |
| 2'F-ANA at 1 4 5 6 7 9 10 14 | 47 a.u. |
| 2'F-ANA at 2 3 4 6 7 10 13 15 | 203 a.u. |
| 2'F-ANA at 3 4 5 8 9 10 12 13 15 | 90.2 a.u. |
| 2'F-ANA at 1 2 8 9 10 11 12 13 14 15 | 49.7 a.u. |
| 2'F-ANA at 2 4 7 9 10 12 13 14 | 67.7 a.u. |

Set 3
Target: Sal-like protein 4, full length isoform B (SALL4, Homo sapiens, UniProt Q9UJQ4-2, residues 1-616)
Technique: universal PBM
Molecule type: double-stranded DNA, one strand shown
Medium: in vitro
Concentration: not given
Notes: 8-mer, flanks averaged, mean of replicates
Reading: higher = stronger binding
| Oligonucleotide | E-score |
| --- | --- |
| AGCGACCT | -0.177 |
| GTGAACAC | -0.0885 |
| CAATTATC | 0.233 |
| GGATTTCA | 0.114 |
| CTGTTCGA | -0.0499 |
| AATTCGTA | 0.252 |
| ATCCATGA | -0.0286 |
| AAGGGATC | -0.0757 |
| TGGCTTAA | 0.127 |
| ACACGCGC | -0.179 |
| CACCTGAC | -0.141 |
| AGGGGAGC | -0.327 |
| AAGTCGCT | -0.0844 |
| AAATCGAC | 0.00179 |
| TACGATCA | 0.192 |
| ACAACGAA | 0.131 |
| CGCGGTCA | -0.257 |
| GAATCCAC | -0.0292 |
| TAAGTTGA | 0.166 |
| CCAACAGA | -0.0023 |
| CACAGATA | 0.122 |
| ATAACTCG | 0.262 |
| TCTCGTAA | 0.168 |
| AAGTACAG | 0.0656 |

Set 4
Target: RNA binding protein fox-1 homolog 2, RRM domain, GST-SBP tag (RBFOX2, Homo sapiens, UniProt O43251-10, residues 100-194)
Technique: RNA Bind-n-Seq
Molecule type: RNA
Medium: in vitro
Concentration: 365 nM
Notes: natural RNA segment, single round, ends assumed
Baseline: no-protein control
Reading: higher = stronger binding
All sequences stand within: GGGAGUUCUACAGUCCGACGAUC … UGGAAUUCUCGGGUGCCAA
Residues (chain): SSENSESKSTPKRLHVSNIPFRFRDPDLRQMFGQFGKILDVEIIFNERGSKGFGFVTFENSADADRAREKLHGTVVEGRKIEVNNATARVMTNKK
| Oligonucleotide | RBNS enrichment (R) |
| --- | --- |
| CCCCAUGACCCUGUAGAAAUUGAAUCCUGCUCACAACAUUGUUGGCCUUCUUACUAACCUUGGACCGUGAUUGAGCCCAAGAAACCAGGGACUUACGCAUUUGGCCAAUG | 0.789 |
| AAAUAAUAUGUGUAAAUUGAAAUUUUUUUCAUUUUUAAGUUAUCAGGCACUUUUCAUGCUGUUUAAAAGACUGUGUAUCAAAUUGUGCACUUUAAGUAUGUGCAGUUUGU | 0.331 |
| CCUGUGCUACGGAGGGGUGGAGGGCACUGAGUAGGGCUCUGCCCUAUUCAUCUUGUUGGAACCCCACCCCAUUUUCCCUGACAGAACAUUCCUAAGUCUCAAGGGCUAGU | 0.306 |
| AGUUAUUUAAUUAUUAAAGGUGCCACGGUGGGACCUUUGGGAUGACUUAAAAAGGGUUCUUUGUUGGGAGUCAAGUGACAGAGCAGACCUGGCCGCAGGGAGUUGUUCUG | 0.416 |
| GUUACAUCGGAGCAGGGGAGCCUCAAAUCCACCUUUGGAGCCGCCCCUGUGUGCAUUAGGAACCCUUCUCUCCUCUGAGAAAGCUCAGAGGGAGCACUGCCUCACAAACU | 1.03 |
| AAUAGGCUGGCUACAUGAACACUGUCAGAAAUCCCAGACUUGCCCACAAGGAUAAUGCUGCAUUUUUCUGUCAGAGUCACACAUGUUUUUCUGGAGAGGUUAUUUCUGCA | 0.676 |
| UUGUGUUGUAUUUUUGUUUUUAAAUAAAAGUACAGUAUAAAUUUUCCUAUUAAAUAAGAUUAUUUUAAGUUUUAGUGUCAACAUUGCAAUGCCAAUAGUAGGUGAGAGUG | 0.562 |
| AAAAAGUAUUUUGUUUUGAUUUUUUAACUUGCUGCAUUGUUUUGAUACUUUCUAUUUUUUUGGUCAAAUCAUGUUUAGAAACUUUGGAUGAGUUAAGAAGUCUUAAGUAU | 0.883 |
| UAACCACUUGGGCUAGGACACAGGAGGAAAGGAAGGCACUGUAUUUCCUAUGAGCUCUCUGCUCAGAGCAGCUGUCUGUGGUCCCGUGGGUCCUGGAUUCUGUGAUGGUA | 0.261 |
| AACCCUUUGAACCUGAUGUGACUUCAGCAAUAACCUUCACCUGACUCUGGAGCCUCCGUCUCUUCGAUUAUAAAGACACCCGUCCUUAAGACAGCCGCUCCUUGGACACU | 0.31 |
| UUACCCUCAGCCACUUCCUCUGGCUGUCACAGAACAGGAUGGUGGCCUGGGGGAUGCACACUUGUAGCCUCAGAGCUAAGAGGACUCGGUGGAUGGAGCAAGACUGUGAA | 0.63 |
| UCGCCUAUAUCUGCUGCCCAGAGGCCUGUCUCGCACAGGGGUCUCGCCACUGCCAAAGACUCCCAGGAAGCCACUAGCAAAUGGAACUCUGUAACCCCAUCAUGACAAGA | 0.646 |

Some of these lines once more (set 4):
| Oligonucleotide | RBNS enrichment (R) |
| --- | --- |
| AGUUAUUUAAUUAUUAAAGGUGCCACGGUGGGACCUUUGGGAUGACUUAAAAAGGGUUCUUUGUUGGGAGUCAAGUGACAGAGCAGACCUGGCCGCAGGGAGUUGUUCUG | 0.416 |
| GUUACAUCGGAGCAGGGGAGCCUCAAAUCCACCUUUGGAGCCGCCCCUGUGUGCAUUAGGAACCCUUCUCUCCUCUGAGAAAGCUCAGAGGGAGCACUGCCUCACAAACU | 1.03 |
| AAUAGGCUGGCUACAUGAACACUGUCAGAAAUCCCAGACUUGCCCACAAGGAUAAUGCUGCAUUUUUCUGUCAGAGUCACACAUGUUUUUCUGGAGAGGUUAUUUCUGCA | 0.676 |
| UUGUGUUGUAUUUUUGUUUUUAAAUAAAAGUACAGUAUAAAUUUUCCUAUUAAAUAAGAUUAUUUUAAGUUUUAGUGUCAACAUUGCAAUGCCAAUAGUAGGUGAGAGUG | 0.562 |
| AAAAAGUAUUUUGUUUUGAUUUUUUAACUUGCUGCAUUGUUUUGAUACUUUCUAUUUUUUUGGUCAAAUCAUGUUUAGAAACUUUGGAUGAGUUAAGAAGUCUUAAGUAU | 0.883 |
| UAACCACUUGGGCUAGGACACAGGAGGAAAGGAAGGCACUGUAUUUCCUAUGAGCUCUCUGCUCAGAGCAGCUGUCUGUGGUCCCGUGGGUCCUGGAUUCUGUGAUGGUA | 0.261 |
